# Experimental data pooled from the literature.
# Parts stem from different laboratories: compare values within a part only. Positions count from the first letter of the parent shown.

# Set 1 — method: EMSA with sequencing; molecule type: double-stranded DNA, one strand shown; sample: in vitro; tested at: 10 and 20 nM; reference: negative control set to 0; reading: higher = stronger binding
# Target: Hepatocyte nuclear factor 3-alpha (Foxa1, Mus musculus, UniProt P35582, residues 1-468, full length assumed)
# Setting: whole designed probe, mean of two concentrations, ends assumed
# Constant ends, left off below: GTGAGCGGTGCCCATTGATGGGGAAC … TTTCACTGGGATCGTGGGGAC
# Construct (chain): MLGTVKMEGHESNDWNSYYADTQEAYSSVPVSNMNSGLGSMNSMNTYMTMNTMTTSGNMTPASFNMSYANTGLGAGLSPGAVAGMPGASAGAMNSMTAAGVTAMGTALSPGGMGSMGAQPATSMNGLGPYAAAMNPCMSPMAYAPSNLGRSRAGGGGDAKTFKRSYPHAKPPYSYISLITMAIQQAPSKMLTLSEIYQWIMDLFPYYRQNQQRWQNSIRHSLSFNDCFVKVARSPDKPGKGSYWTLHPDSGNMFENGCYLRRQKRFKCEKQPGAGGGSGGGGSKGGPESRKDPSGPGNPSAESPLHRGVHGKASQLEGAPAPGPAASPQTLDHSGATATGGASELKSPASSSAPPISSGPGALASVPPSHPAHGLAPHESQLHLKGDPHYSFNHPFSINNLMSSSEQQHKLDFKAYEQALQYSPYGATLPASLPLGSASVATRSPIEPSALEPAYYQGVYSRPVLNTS
Sequence,normalised bound fraction
GGAAGCTCTTTGTACCCCTTTTGCAACTTTTCAGTAAATTTGCAGTTATTTCAAAATATAAAAAGTTAAACATTTGCTAGAAAAGTTTCTAAATGTTTACTCTCGGTTTCTGCTCAAGGGTGGGTGGCTTATGGTTCCCGCAGAGGCATTCCAAGTTACACGATCTGACAAGACATGGAGCGACCTGAGTTTG,0.176 ratio
GTCTCCTGGGGTTCTGCGAAATCTAGCCAGAAGCATCTCCATCTCGGTGTCCATTTCGATCCAACTAAGCTTCCAGTAAAGACACTGCAGCAATGTAAACATGCAACCTAAGCTAGCATGAGGTTCTAGATAGTAAGCCTGAACTAGGAATAAGGCAACTGAACTGTGACTTTCGGGCCAGGGTCATCCAGCT,0.349 ratio
ATGTGGCTTTAGCTGTGTCCCAAAGATTTTGGTATGTGTTTTCTCTGTTTTCACTTATTTCAAAGAACTTTTAAATTTCTGCCTTGATATCATTGTTTACTCAAAAGTTGTTGAGGAGCCAGTTGTTTAATTTCTATGCATTTCTGTGGTTTTGAGAGATCTTCTTGGTATTGTTTTCTGTTTTTATTCTATT,0.39 ratio
ATCTTCCCCCTCTTCCTTGCCCCACCAGCTCACCTTCCCGGGTATCTGCAAATAAGTATTTATTTTCAAGCCGGCATTCGTTAACCCTCTTCACGCGCATACTGCTGTTTACTTTGGATGAATCATGGTCCTTTGGCGACGCCAGGCTCCGGGAGAGCAAAGCACCGTGTCAGGGCCATGATCCGGGGTGGCC,0.392 ratio
AAACAGTTCTGTTAGGAAAGATCAGCAAACACCACGTGCAGCAACTCAACAAGCATCTCTATCCTGCCTCTGGCGAGCACATGTTATTTCTAAGCCAACAGCGCCACCTAGTGGAAATATAAATCCTCTTCATGTGGCAAATCGCCGGTGTTTTACAGTAATACTGCAGCTTCTCAATTCTTTCTTTTTGCAC,0.0694 ratio
AGGAAATGAGGGGTGAGAAGAGGAGTGCAGGTTCCAGCTTCAGGGAGGAATCCTTGGCATTTACATAGCAAACAACACCCAGGTGAGGCGGTGTGTCAACAAGGCCCAGCTCAACAGCTCCCAAGTCTCAGCATATTTTAAATGTTTGCCACATGCCAGACATTAATATTTTAACGGCTGCACGTCCGTGGCA,0.28 ratio
TTGACTTAAGGCTTCCTCCCAGCCCCCTCTCAGCCTCTAGCAACATACAGATGGCGTCATTCAGCACCTTGAATCATTTGGACAGCAGCAAAAGCAAACAAGAAACTCACCAACAGTGAAGCTAAATTAGCTGTCAGGGCTGCAATTGTACAGAATGTGTGGAAGCCAAGAAATAGCACCAGGGCTAAGAAGC,0.365 ratio
GTGTGTGCGCGCGCGTGTGTGTGTGTTTTCTTAAGCCGGGCTATTCAAACCCTGCTGCAATTCTCCGGTACAATGATTCATAAGGGGCATAATGCAAATAAACGGATTGCAAACGGCGCGGTTCGCGCACTTTGCAGCCGGCCCGGTGGAGCAGCCAGTGCCGGATTTCTCCCTTTTTTTGCAGATCTGCAGA,0.393 ratio

# Set 2 — target: CCNB1, cyclin fold, Cln2 fusion (human); method: yeast growth competition, sequencing; sample: yeast; setting: weak parent motif; reference: not given; reading: higher = stronger binding; starting sequence: viral docking peptide; KKAKRRLFTISDS
Substitution,normalised enrichment score
KKAKKRLFTISDS [R5K],0.154
KKAKRRAFTISDS [L7A],0.286
KKAARRLFTISDS [K4A],0.347
AKAKRRLFTISDS [K1A],0.713
KKAKRRLFAISDS [T9A],1.33
KKAKRALFTISDS [R6A],1.52
KKAKARAFTISDS [R5A L7A],0.00849
KKAKARLFTISDS [R5A],1.04

# Set 3 — method: RNAcompete; molecule type: RNA; sample: in vitro; tested at: 20 nM; setting: 7-mer, probes averaged, single round; reference: mean of 7-mers; reading: higher = stronger binding
# Target: PABPC1L2, full length, GST fusion (mouse, UniProt A0ABA7IW68)
# Target sequence (chain): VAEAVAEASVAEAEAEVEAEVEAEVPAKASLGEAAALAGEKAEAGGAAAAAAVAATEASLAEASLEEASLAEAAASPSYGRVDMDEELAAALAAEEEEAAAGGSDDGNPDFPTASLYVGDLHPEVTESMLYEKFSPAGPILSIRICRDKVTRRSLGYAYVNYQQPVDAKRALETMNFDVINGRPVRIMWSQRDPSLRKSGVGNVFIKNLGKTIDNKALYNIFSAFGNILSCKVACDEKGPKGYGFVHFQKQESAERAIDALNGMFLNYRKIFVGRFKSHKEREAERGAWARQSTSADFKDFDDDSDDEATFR
Sequence,7-mer Z-score
GAACCCU,-0.282
UUACUUC,-0.36
AGCUGAA,0.0478
CAUAGCU,-0.197
ACUUUUC,-0.298
GCCUUUA,-0.151
UAAUCUC,-0.233
UAGGGGU,-0.0174

# Single results of other studies
Structure (SMILES),organism,assay,system,conditions,how to read,measurement,result
Oc1cc(Cl)ccc1Oc1ccc(Cl)cc1Cl,Plasmodium berghei,inhibitor,"Huh-7, GFP-expressing, liver stage","10 µM, 24 h",reference: untreated control,infection rate,22.1%

# Excerpt of the above (single results of other studies):
Structure (SMILES),organism,assay,system,conditions,how to read,measurement,result
Oc1cc(Cl)ccc1Oc1ccc(Cl)cc1Cl,Plasmodium berghei,inhibitor,"Huh-7, GFP-expressing, liver stage","10 µM, 24 h",reference: untreated control,infection rate,22.1%
